# Measurements of several laboratories.
# Numbers after ± are the reported error.
# B1: enzyme (Homo sapiens, UniProt Q9NTI2); chain MLNGAGLDKALKMSLPRRSRIRSSVGPVRSSLGYKKAEDEMSRATSVGDQLEAPARTIYLNQPHLNKFRDNQISTAKYSVLTFLPRFLYEQIRRAANAFFLFIALLQQIPDVSPTGRYTTLVPLIIILTIAGIKEIVEDFKRHKADNAVNKKKTIVLRNGMWHTIMWKEVAVGDIVKVVNGQYLPADVVLLSSSEPQAMCYVETANLDGETNLKIRQGLSHTADMQTREVLMKLSGTIECEGPNRHLYDFTGNLNLDGKSLVALGPDQILLRGTQLRNTQWVFGIVVYTGHDTKLMQNSTKAPLKRSNVEKVTNVQILVLFGILLVMALVSSAGALYWNRSHGEKNWYIKKMDTTSDNFGYNLLTFIILYNNLIPISLLVTLEVVKYTQALFINWDTDMYYIGNDTPAMARTSNLNEELGQVKYLFSDKTGTLTCNIMNFKKCSIAGVTYGHFPELAREPSSDDFCRMPPPCSDSCDFDDPRLLKNIEDRHPTAPCIQEFLTLLAVCHTVVPEKDGDNIIYQASSPDEAALVKGAKKLGFVFTARTPFSVIIEAMGQEQTFGILNVLEFSSDRKRMSVIVRTPSGRLRLYCKGADNVIFERLSKDSKYMEETLCHLEYFATEGLRTLCVAYADLSENEYEEWLKVYQEASTILKDRAQRLEECYEIIEKNLLLLGATAIEDRLQAGVPETIATLLKAEIKIWVLTGDKQETAINIGYSCRLVSQNMALILLKEDSLDATRAAITQHCTDLGNLLGKENDVALIIDGHTLKYALSFEVRRSFLDLALSCKAVICCRVSPLQKSEIVDVVKKRVKAITLAIGDGANDVGMIQTAHVGVGISGNEGMQATNNSDYAIAQFSYLEKLLLVHGAWSYNRVTKCILYCFYKNVVLYIIELWFAFVNGFSGQILFERWCIGLYNVIFTALPPFTLGIFERSCTQESMLRFPQLYKITQNGEGFNTKVFWGHCINALVHSLILFWFPMKALEHDTVLTSGHATDYLFVGNIVYTYVVVTVCLKAGLETTAWTKFSHLAVWGSMLTWLVFFGIYSTIWPTIPIAPDMRGQATMVLSSAHFWLGLFLVPTACLIEDVAWRAAKHTCKKTLLEEVQELETKSRVLGKAVLRDSNGKRLNERDRLIKRLGRKTPPTLFRGSSLQQGVPHGYAFSQEEHGAVSQEEVIRAYDTTKKKSRKK
# B2: Urtica dioica agglutinin; sequence looked up; chain QRCGSQGGGGTCPALWCCSIWGWCGDSEPYCGRTCENKCWSGERSDHRCGAAVGNPPCGQDRCCSVHGWCGGGNDYCSGSKCQYRCSSSVRGPRVALSGNSTANSIGNVVVTEPLFDQMFSHRKDCPSQGFYSYHSFLVAAESFPAFGTIGDVATRKREVAAFLAHISQATSGERSDVENPHAWGLCHINTTTVTENDFCTSSDWPCAAGKKYSPRGPIQLTHNFNYGLAGQAIGEDLIQNPDLVEKDPIISFKTALWFWMSQHDNKPSCHDIVLNANSAANRIPNKGVIGNIISRAFGHDDFAVRSSSIGFYKRYCDMLGVSYGHDLKYWFDNTPSSEFQRIQMRVAA
# B3: enzyme (Enterococcus faecalis, UniProt Q836M4); chain MEIHFEKVTSDNRKAVENLQVFAEQQAFIESMAENLKESDQFPEWESAGIYDGNQLIGYAMYGRWQDGRVWLDRFLIDQRFQGQGYGKAACRLLMLKLIEKYQTNKLYLSVYDTNSSAIRLYQQLGFVFNGELDTNGERVMEWTHQNK
# B4: rsmI (Escherichia coli, UniProt P67087); chain MKQHQSADNSQGQLYIVPTPIGNLADITQRALEVLQAVDLIAAEDTRHTGLLLQHFGINARLFALHDHNEQQKAETLLAKLQEGQNIALVSDAGTPLINDPGYHLVRTCREAGIRVVPLPGPCAAITALSAAGLPSDRFCYEGFLPAKSKGRRDALKAIEAEPRTLIFYESTHRLLDSLEDIVAVLGESRYVVLARELTKTWETIHGAPVGELLAWVKEDENRRKGEMVLIVEGHKAQEEDLPADALRTLALLQAELPLKKAAALAAEIHGVKKNALYKYALEQQG
# B5: enzyme Y1159A (Homo sapiens, UniProt Q9NTI2); chain MLNGAGLDKALKMSLPRRSRIRSSVGPVRSSLGYKKAEDEMSRATSVGDQLEAPARTIYLNQPHLNKFRDNQISTAKYSVLTFLPRFLYEQIRRAANAFFLFIALLQQIPDVSPTGRYTTLVPLIIILTIAGIKEIVEDFKRHKADNAVNKKKTIVLRNGMWHTIMWKEVAVGDIVKVVNGQYLPADVVLLSSSEPQAMCYVETANLDGETNLKIRQGLSHTADMQTREVLMKLSGTIECEGPNRHLYDFTGNLNLDGKSLVALGPDQILLRGTQLRNTQWVFGIVVYTGHDTKLMQNSTKAPLKRSNVEKVTNVQILVLFGILLVMALVSSAGALYWNRSHGEKNWYIKKMDTTSDNFGYNLLTFIILYNNLIPISLLVTLEVVKYTQALFINWDTDMYYIGNDTPAMARTSNLNEELGQVKYLFSDKTGTLTCNIMNFKKCSIAGVTYGHFPELAREPSSDDFCRMPPPCSDSCDFDDPRLLKNIEDRHPTAPCIQEFLTLLAVCHTVVPEKDGDNIIYQASSPDEAALVKGAKKLGFVFTARTPFSVIIEAMGQEQTFGILNVLEFSSDRKRMSVIVRTPSGRLRLYCKGADNVIFERLSKDSKYMEETLCHLEYFATEGLRTLCVAYADLSENEYEEWLKVYQEASTILKDRAQRLEECYEIIEKNLLLLGATAIEDRLQAGVPETIATLLKAEIKIWVLTGDKQETAINIGYSCRLVSQNMALILLKEDSLDATRAAITQHCTDLGNLLGKENDVALIIDGHTLKYALSFEVRRSFLDLALSCKAVICCRVSPLQKSEIVDVVKKRVKAITLAIGDGANDVGMIQTAHVGVGISGNEGMQATNNSDYAIAQFSYLEKLLLVHGAWSYNRVTKCILYCFYKNVVLYIIELWFAFVNGFSGQILFERWCIGLYNVIFTALPPFTLGIFERSCTQESMLRFPQLYKITQNGEGFNTKVFWGHCINALVHSLILFWFPMKALEHDTVLTSGHATDYLFVGNIVYTYVVVTVCLKAGLETTAWTKFSHLAVWGSMLTWLVFFGIYSTIWPTIPIAPDMRGQATMVLSSAHFWLGLFLVPTACLIEDVAWRAAKHTCKKTLLEEVQELETKSRVLGKAVLRDSNGKRLNERDRLIKRLGRKTPPTLFRGSSLQQGVPHGAAFSQEEHGAVSQEEVIRAYDTTKKKSRKK
# Chain of UniProt O15354 (whole entry, looked up): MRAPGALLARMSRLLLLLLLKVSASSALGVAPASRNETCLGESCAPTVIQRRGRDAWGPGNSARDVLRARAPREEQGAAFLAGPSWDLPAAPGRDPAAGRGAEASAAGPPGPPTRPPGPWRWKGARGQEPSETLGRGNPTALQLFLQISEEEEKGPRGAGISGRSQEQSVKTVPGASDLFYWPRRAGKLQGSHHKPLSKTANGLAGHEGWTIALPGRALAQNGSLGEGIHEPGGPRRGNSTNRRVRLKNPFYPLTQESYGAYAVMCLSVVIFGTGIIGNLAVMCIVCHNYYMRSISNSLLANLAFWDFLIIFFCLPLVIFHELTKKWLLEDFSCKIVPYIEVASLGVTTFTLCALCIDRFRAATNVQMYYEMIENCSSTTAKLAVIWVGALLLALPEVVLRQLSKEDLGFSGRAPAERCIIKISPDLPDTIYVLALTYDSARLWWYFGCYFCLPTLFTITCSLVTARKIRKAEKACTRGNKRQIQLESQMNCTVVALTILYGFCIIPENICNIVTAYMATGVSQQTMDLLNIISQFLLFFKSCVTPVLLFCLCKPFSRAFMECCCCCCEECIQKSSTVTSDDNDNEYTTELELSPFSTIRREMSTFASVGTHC
Substance,tested on,test,system,setting,scale,endpoint,result
B1 (enzyme),CCCCCCCC/C=C\CCCCCCCC(=O)OC[C@H](COP(=O)(O)OC[C@H](N)C(=O)O)OC(=O)CCCCCCC/C=C\CCCCCCCC,steady-state kinetics,,"pH 7.5, 37 °C, together with: ATP 5 mM",,K0.5,19.4 µM
pertussis toxin,"GPR37 (Homo sapiens, UniProt O15354)","osteocalcin-induced pERK, inhibitor",HEK293 cells transfected with GPR37,"concentration not given, together with: osteocalcin after pretreatment",,ERK phosphorylation,inhibited
insulin human,,measured: GLS mRNA,"EcoHIV-infected mouse, brain","i.p., dose not given",reference: PBS,fold change,1.12
B2 (Urtica dioica agglutinin),CRFK,MTS,,,,CC50,> 100 µg/mL
B3 (enzyme),NCCCNCCCCNCCCN,steady-state kinetics,,"pH 8, 37 °C, Hill n 1.7, together with: AcCoA 1 mM",,K0.5,76.1 µM
glucagon,,ELISA,"human, type 1 diabetes, femoral artery plasma","intravenous infusion, 0.05 ng/kg/min, 100 to 120 min",,plasma concentration,0.025 ± 0.0022 ng/mL
CRQLRKGKFFSEGGSGGTSFEQFWAWLWP,,ICP-MS,"peptide, BALB/c nude mice",,,half-life,9.6 h
HVLVMSATRR,,,"peptide, C57BL/6J mice, male, blood","subcutaneous osmotic pump, 3 mg/kg/day peptide basis, 8 weeks",,basophils,0%
ALS1 S627I/W548L (Oryza sativa),CC(=O)C(=O)O,steady-state kinetics,,"pH 7.5, 37 °C, together with: FAD, MgCl2, TPP",,Vmax,0.157 µmol/min/mg
B4 (rsmI),itself,cryo-EM,,,,molecule per partner,2
amyloid β-peptide (1–28),,"substrate, LC-MS",phosphate buffer,"10 µM, 24 h, pH 7.4, 25 °C, together with: MINP(β1–14) 1 equiv",,remaining substrate,< 0.1%
B5 (enzyme Y1159A),CCCCCCCC/C=C\CCCCCCCC(=O)OC[C@H](COP(=O)(O)OC[C@H](N)C(=O)O)OC(=O)CCCCCCC/C=C\CCCCCCCC,steady-state kinetics,,"pH 7.5, 37 °C, together with: ATP 5 mM",,K0.5,24.5 µM

# A few entries again:
Substance,tested on,test,system,setting,scale,endpoint,result
B3 (enzyme),NCCCNCCCCNCCCN,steady-state kinetics,,"pH 8, 37 °C, Hill n 1.7, together with: AcCoA 1 mM",,K0.5,76.1 µM
B1 (enzyme),CCCCCCCC/C=C\CCCCCCCC(=O)OC[C@H](COP(=O)(O)OC[C@H](N)C(=O)O)OC(=O)CCCCCCC/C=C\CCCCCCCC,steady-state kinetics,,"pH 7.5, 37 °C, together with: ATP 5 mM",,K0.5,19.4 µM
